Measurements gathered from unrelated publications.
Every numbered part comes from another study and shows a few of its results, in no order. Positions count from the first letter of the parent shown.

Sample 1 — method: RNA Bind-n-Seq; form: RNA; medium: in vitro; concentration: 365 nM; baseline: no-protein control; reading: higher = stronger binding; endpoint: RBNS enrichment (R)
Target: RNA binding protein fox-1 homolog 2, RRM domain, GST-SBP tag (RBFOX2, Homo sapiens, UniProt O43251-10, residues 100-194)
Setting: natural RNA segment, single round, ends assumed
Constant ends, left off below: GGGAGUUCUACAGUCCGACGAUC … UGGAAUUCUCGGGUGCCAA
Target sequence (chain): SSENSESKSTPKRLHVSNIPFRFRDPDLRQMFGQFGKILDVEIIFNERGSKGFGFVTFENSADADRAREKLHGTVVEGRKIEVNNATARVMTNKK
Oligonucleotide = GUUUCAUUGAGUCCAGCUGCAGCCACGUGGCCAUCUGGAGCUGGUGCUAUAGGUGACCAUCUGGUACAUUGAGGGGACCUGUUUGCCUCCUCCACUCUAUAAGCAGUCAU; value = 1
Oligonucleotide = GCACAUGUAGAAACCUGUAGACUUUGGUUACUGCUAUAUUCCCCUUGAGAUCCUUGCUGGAUGCCGACCAGGAUUUCAUGUGAGGGCCAGGGAUGCACAGACCUGGUCAA; value = 1.45
Oligonucleotide = UCAGGAUGCUCUAAGUUGGAGUCAGCCGGGCUCGUUCAUCACUUCUUCGGUUGCUUUGCACCAGUAUGGUAUGGACAUGGGGUGGACAUUUCCAGGUAAGAGGAUCAGCG; value = 1.04
Oligonucleotide = UGGGCACUGCUUUUUCUUACUAAUGUGGUAGAUCUACACGAACAUUCUAGGCUGUUCUGCUCAGAGCGAGGAACCACUGCUCCUCAAUGGGGAGGGAACAUACCACCCAG; value = 0.22
Oligonucleotide = AUCAGAAAAGUCAUUGGCAGACAUAUAUGUCCUUGAACCUUUUUUAUUUGUGUGGAUUCUGCUCAUCACUGUCUCUGUUAGACUUAUUUUGUAGUGGCUGCAUCACAUAU; value = 0.576
Oligonucleotide = ACAAGGUGAUCGAAGGCCUGGACACGGGCCUGCAGGGCAUGUGUGUGGGAGAGAGGCGGCAGCUCAUCGUGCCCCCGCACCUGGCCCACGGGGAGAGUGGAGGCCGGGGA; value = 0.492
Oligonucleotide = UCUUCCCUGGGCAUGACUGAUGACAAUUUCCAUUUCAUCAGUUUGUUUUGUUUUCCUUUUUCUUUAAAUCUUGGACUUUAAACCCUACCUGUGUGAUUCAGUAGGGUUUG; value = 0.664
Oligonucleotide = GUUCCUAGAACAUUCACUGUGCCUUUGCCUGCUUGCUGGCUGCAGCCUCAGAAGGAAAGCCAGGGGCAAGCAAAGGAGACCAAAAUUUCUUGGGGAAGAUUUUUCACGCA; value = 1.2

Sample 2 — method: protein binding microarray; form: double-stranded DNA, one strand shown; medium: in vitro; concentration: not given; baseline: not given; reading: higher = stronger binding; endpoint: E-score
Target: Histone acetyltransferase KAT6A, winged helix 1, GST fusion (KAT6A, Homo sapiens, UniProt Q92794, residues 1-85)
Setting: 8-mer, flanks averaged, mean of 2 arrays, mostly near background
Target sequence (chain): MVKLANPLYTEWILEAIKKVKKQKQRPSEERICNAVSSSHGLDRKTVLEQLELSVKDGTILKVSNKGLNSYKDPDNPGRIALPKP
Oligonucleotide = TATCCACA; value = -0.274
Oligonucleotide = AAAACGGA; value = 0.0553
Oligonucleotide = AGGTATTA; value = -0.0868
Oligonucleotide = CCTGCGCA; value = 0.0548
Oligonucleotide = GCAGATGA; value = -0.0906
Oligonucleotide = ATATGGAA; value = -0.17
Oligonucleotide = AGGTATAG; value = -0.146
Oligonucleotide = AAGTTTTC; value = -0.19
Oligonucleotide = AATGTGTC; value = -0.0927
Oligonucleotide = CACTTGTA; value = -0.158
Oligonucleotide = CTACTCTA; value = -0.127
Oligonucleotide = CGTCGTTC; value = 0.226
Oligonucleotide = GCGCGCTA; value = 0.44
Oligonucleotide = AGCACGCG; value = 0.224
Oligonucleotide = CGTAGAAA; value = -0.171
Oligonucleotide = GACGGCAC; value = 0.339
Oligonucleotide = ATACGGAC; value = 0.141
Oligonucleotide = TCAACGAA; value = -0.202
Oligonucleotide = ACACGTGC; value = 0.0519
Oligonucleotide = GAATCGTC; value = 0.00995

Sample 3 — target: CCNE1, cyclin fold, Cln2 fusion (human); method: yeast growth competition, sequencing; medium: yeast; setting: weak parent motif; baseline: not given; reading: higher = stronger binding; endpoint: normalised enrichment score
Starting sequence: CDC6 docking peptide (human); TLKGRRLVFDNQL
Variant = V8Y; value = 0.417
Variant = N11T; value = 0.906
Variant = F9G; value = -0.496
Variant = G4E; value = -0.275
Variant = G4H; value = 0.292
Variant = G4T; value = 0.0921
Variant = R6W; value = -0.539
Variant = V8H; value = 0.289
Variant = R6L; value = 0.388
Variant = Q12S; value = -0.112
Variant = N11E; value = 0.661
Variant = R6K; value = -0.103
Variant = L2P; value = 0.406
Variant = L2A; value = -0.178
Variant = Q12H; value = 0.284
Variant = L7D; value = 0.215
Variant = D10Y; value = 1.28
Variant = L7K; value = 1.02
Variant = G4R; value = 0.91
Variant = F9T; value = 0.111
Variant = R6Q; value = -0.0284
Variant = G4F; value = 0.0551
Variant = N11V; value = 0.321
Variant = Q12W; value = 1.63
Variant = D10I; value = 0.714

Sample 4 — method: RNA Bind-n-Seq; form: RNA; medium: in vitro; concentration: not given; baseline: input RNA pool; reading: higher = stronger binding; endpoint: bound/input enrichment
Target: RING finger protein unkempt homolog, zinc fingers 1-6, GST-SBP tag (UNK, Homo sapiens, UniProt Q9C0B0, residues 30-357)
Setting: RNA with constant flanks, human and mouse sites, ends assumed
Constant ends, left off below: GGGAGUUCUACAGUCCGACGAUC … CAACAGAGGAUUGAGCAUCA
Residues (chain): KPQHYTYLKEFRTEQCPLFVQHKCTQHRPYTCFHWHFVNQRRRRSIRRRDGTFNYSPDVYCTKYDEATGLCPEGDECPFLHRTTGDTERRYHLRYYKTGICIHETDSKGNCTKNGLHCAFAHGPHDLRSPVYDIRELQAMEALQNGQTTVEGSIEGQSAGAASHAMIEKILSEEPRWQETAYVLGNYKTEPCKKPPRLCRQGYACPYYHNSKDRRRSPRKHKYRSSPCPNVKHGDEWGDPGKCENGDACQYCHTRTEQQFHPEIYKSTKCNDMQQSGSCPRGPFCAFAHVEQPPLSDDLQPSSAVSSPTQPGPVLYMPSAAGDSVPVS
Oligonucleotide = CUGCGCCAGAGAACAGAGAAUAUAGAUAUUAAAAAGUAUUGUGUGCAGUACCUGGAGGAUGUAGGUUCUUUUGCAUACACUCGACACACUCUUAGAGAGCUUGAAGCUAAAGCCUACAAA; value = 7.78 ratio
Oligonucleotide = GCUUUGACCCAGCAACACCCUCCAGUUACCAAUGGUGAUACUGUAAAAGGCCAUGGCAGUGGAUUGGUUAGGACUCAGUCAGAAGAGUCUCGCCCACAGUCCUUGCAGCAGCCAGCCACC; value = 0.114 ratio
Oligonucleotide = GGAAUGGAUGCUCUUCCUUAUAUUGAUUUAAUUGACCCAGCUGAGAUUGAUCUCCUAUUAAUUAGUCAUUUCCAUUUGGAUCACUGUGGAGCUCUGCCCUGGUUUCUACAGAAGACAAGU; value = 1.05 ratio
Oligonucleotide = UUCAAAAUUGGAGCAUGUCGUCAUGGAGACAGGUGCUCUCGGUUGCACAAUAAACCGACGUUUAGCCAGACCAUUGCCCUCUUGAACAUUUACCGUAACCCUCAAAACUCUUCCCAGUCU; value = 0.237 ratio
Oligonucleotide = GAAGUUCUUGCUGGACGGCCACUGUUCCCGCAUGUUCUCUGCCACAACUGUGCAGUUGAAUUUAAUUUUGGUCAGAAGGAAAAGCCAUAUUUUCCAAUACCUGAAGAGUAUACUUUCAUC; value = 0.0563 ratio
Oligonucleotide = AAUAUGGAGUCAGUUUUUGACUAUAGUAUAAAUUCUGUACAUGAUGAGAAAAUGGAAGAGCAAACUGAAAUUCUUCAAAAUGGCUUCAAUCCUGAAGAAGAUAAAUGCAAUAACUGUGAU; value = 0.235 ratio
Oligonucleotide = UUGGGCUUCUGGAGGGCCUCUCUCGCCUGCCCGACGUCCUGCAAAUGCAGUUCCGCUAGGAUUUGGUGUACUGAGCCUUCUCCAGGCAUCGUGGCAUUCCCGAGGUUGGAACCUAACAGC; value = 0.0607 ratio
Oligonucleotide = UUUCCACGAGGGGAUGAAAUAUUGGAGCUGUUGUAGAAGAAAAACUUCAGAUUUUAAUACAUUCUUAGCCCAAGAGGGCUGUACAAGAGGGAAGCAUGUAUGGACUAAAAAAGAUGCAGG; value = 0.395 ratio

Some of these lines once more (sample 2):
Oligonucleotide = TATCCACA; value = -0.274
Oligonucleotide = AGGTATTA; value = -0.0868
Oligonucleotide = GAATCGTC; value = 0.00995
Oligonucleotide = AAGTTTTC; value = -0.19
Oligonucleotide = AGGTATAG; value = -0.146
Oligonucleotide = GCGCGCTA; value = 0.44
Oligonucleotide = AATGTGTC; value = -0.0927
Oligonucleotide = GACGGCAC; value = 0.339
Oligonucleotide = AGCACGCG; value = 0.224
Oligonucleotide = ACACGTGC; value = 0.0519
